Published values collected from several papers.
Lines come from different studies, so protocols differ. Several values in a cell are separate wells, animals, samples, runs or records.
Target: Myosin light chain kinase 2, skeletal/cardiac muscle (MYLK2, Homo sapiens, UniProt Q9H1R3)

SMILES | test | conditions | scale | quantity | value
CNC1C[S+]2CC[S+]3CC[S+](C1)[Ru-4]321([N]=C=S)[n]2c3ccc(OC)cc3c3c4c(c5cc(F)c[n+]1c5c32)C(=O)NC4=O (stereo not shown) | KinomeScan | 0.1 µM | baseline: untreated | remaining binding | 85%
CN1CCN(Cc2ccc(-c3ccc(CO[C@H]4CCC[C@@H]4NC(=O)c4cc(-c5cnn(C)c5)cnc4N)cc3)cc2)CC1 | enzyme activity, inhibitor | 0.1 µM | – | inhibition | -4%
C=CC(=O)N1CCc2ccc(-n3c(=O)ccc4cnc5ccc(-c6cnn(C)c6)cc5c43)cc21 | KINOMEscan | 1 µM | baseline: DMSO control | remaining binding | 63%
Nc1ncc(-c2cc(-c3cnn(CC(F)(F)F)c3)ncc2F)nc1C(=O)NC1CNCC(F)C1 (stereo not shown) | enzyme activity | 1 µM | baseline: DMSO control | remaining activity | 97.3%
NC(=O)C[C@H]1CCc2sc3ncnc(O[C@H]4CC[C@H](N5CCOCC5)CC4)c3c21 | enzyme activity, inhibitor | 10 µM | – | inhibition | 2%
Cc1ccc(-c2c(/C=C(\C#N)C(=O)NC(C)C)n(CCCO)c3ncnc(N)c23)cc1 | cell-free assay, competition with immobilised ligand | 1 µM | – | remaining binding | 96%
CNC(=O)C1CCN(c2cc(C)c(F)cc2NC(=O)c2ccc(-c3cc(O)ccc3C)c(C)c2)CC1 | binding, competition with immobilised ligand | 1 µM | – | remaining binding | 99%
CC(C)=CC1OC(C)(C)C2C=C3C(=O)C(Cl)=CC(O)C3C3C(O)C4OC4C(=O)C132 (stereo not shown) | cell-free assay, competition with immobilised ligand | 10 µM | – | remaining binding | 94%
C=CC(=O)N1Cc2nc(-c3cc(-c4cc(Cl)cnc4Cl)c(F)cc3F)n(-c3ccncn3)c2C1 | cell-free assay, inhibitor | 1 µM | – | inhibition | -0.7%
CCn1cc(C(=O)O)c(=O)c2c(N)c(F)c(NC3CCCCC3)cc21 | kinase activity | 0.1 µM, together with: ATP at Km | – | inhibition | 1.4%
CNC(=O)C[C@H](Cc1ccc(C#N)cc1)NC(=O)c1cc(-c2ccc(CN[C@H](C)c3ccc(C)cc3)o2)ccc1Cl | enzyme activity, inhibitor | 1 µM | – | activity vs control | 108%
C=CC(=O)Nc1cccc(-c2cnc3[nH]cc(C(=O)NC(C)(C)C)c3n2)c1 | kinase activity | 0.1 µM | – | inhibition | 10% and -2%
COc1cc(Nc2nccc(-c3cnn4nc(OC)ccc34)n2)cc(C(F)(F)F)c1 | binding, competition with immobilised ligand | 1 µM | – | remaining binding | 100%

Repeated from above:
SMILES | test | conditions | scale | quantity | value
C=CC(=O)N1Cc2nc(-c3cc(-c4cc(Cl)cnc4Cl)c(F)cc3F)n(-c3ccncn3)c2C1 | cell-free assay, inhibitor | 1 µM | – | inhibition | -0.7%
CCn1cc(C(=O)O)c(=O)c2c(N)c(F)c(NC3CCCCC3)cc21 | kinase activity | 0.1 µM, together with: ATP at Km | – | inhibition | 1.4%
